Assay results pooled from the literature.
Protocols differ between the studies behind these lines. ± marks the error that the study gave.

| Structure (SMILES) | cell line | assay | setting | IC50 |
| --- | --- | --- | --- | --- |
| Oc1ccc(C(=NNc2ccccc2)c2ccc(O)cc2)cc1 | HCT-15 (KRAS G13D) | cell viability, CellTiter-Glo | 72 h | 25.1 ± 10.6 µM |
| O=C(/C=C/c1ccc(-c2ccccc2)cc1)N[C@@H]1O[C@H](CO)[C@@H](O)[C@H](O)[C@H]1O | L1210 | cell growth or viability | 48 h | 134 µM |
| Cc1c(C)n(-c2c(C(C)C)cccc2C(C)C)c(=[Se])n1-c1c(C(C)C)cccc1C(C)C.[Cl][Au] | A2780 ADR | MTT | 72 h | 0.3 ± 0.02 µM |
| CC(C)c1cccc(C(C)C)c1N=[C](NCc1cccc(N)c1)[AuH][Cl] | OVCAR-3 | cell growth or viability |  | 5 µM |
| O=C(Cc1ccc2ccccc2c1)N[C@H](Cc1ccccc1)C(=O)N[C@H](Cc1ccc(OP(=O)(O)O)cc1)C(=O)N[C@H](Cc1ccccc1)C(=O)N[C@H](Cc1ccc(OP(=O)(O)O)cc1)C(=O)O | SAOS-2 | cell growth or viability, MTT |  | 144 µg/mL |
| Cc1cn([C@@H]2O[C@H](CO)[C@@H](O)[C@H](F)[C@H]2O)c(=O)[nH]c1=O | L1210 | cell growth or viability |  | > 200 µM |
| CC(C)c1cccc(C(C)C)c1N1CCN(c2c(C(C)C)cccc2C(C)C)C1=[Se].[Cl][Ag] | H157 spheroids | acid phosphatase | 72 h, 3D spheroid | 24.4 ± 1.5 µM |
| CC(C)(C)N=[C](NCc1cccc(N)c1)[AuH][Cl] | OVCAR-3 | cell growth or viability |  | > 100 µM |
| CN1CCN(c2ccc(Nc3ncc(Cl)c(Nc4ccccc4P(C)(C)=O)n3)cc2Br)CC1 | PC-9 | cell growth or viability, SRB | 72 h | 0.23 µM |
| Cc1cc(C)c(-n2c3c([n+](-c4c(C)cc(C)cc4C)[c]2[Cu-][Cl])-c2cccc4cccc-3c24)c(C)c1 | PSN1 | cell growth or viability, MTT | 72 h | 4 µM |
| CC(C)c1cccc(C(C)C)c1-n1ccn(-c2c(C(C)C)cccc2C(C)C)c1=[Se].[Cl][Au] | LoVo-OXP (oxaliplatin-resistant) | MTT | 72 h | 2.1 ± 0.4 µM |
| Cl.[Cl][Ru-]1[S+]=C(N2CCCC2)N[N+]1=Cc1ccc(N(c2ccc(-c3ccsc3)cc2)c2ccc(-c3ccsc3)cc2)cc1.c1ccccc1 | HeLa S3 | cytotoxicity, MTT | 24 h | 85.6 ± 4.2 µM |
| CN1CCCNC(=O)c2cccc(c2)C(=O)NCCCN(C)CCCNc2cccc3c2C(=O)c2cccc(c2C3=O)NCCC1 | HSC-2 | cell growth or viability, CCK-8 | 48 h | 1 µM |
| CC(C)c1cccc(C(C)C)c1-n1c(Cl)c(Cl)n(-c2c(C(C)C)cccc2C(C)C)c1=[Se].[Cl][Ag] | H157 spheroids | acid phosphatase | 72 h, 3D spheroid | 12.2 ± 5 µM |

Repeated from above:
| Structure (SMILES) | cell line | assay | setting | IC50 |
| --- | --- | --- | --- | --- |
| O=C(Cc1ccc2ccccc2c1)N[C@H](Cc1ccccc1)C(=O)N[C@H](Cc1ccc(OP(=O)(O)O)cc1)C(=O)N[C@H](Cc1ccccc1)C(=O)N[C@H](Cc1ccc(OP(=O)(O)O)cc1)C(=O)O | SAOS-2 | cell growth or viability, MTT |  | 144 µg/mL |
